Experimental data gathered from unrelated publications.
Every numbered part comes from another study and shows a few of its results, in no order.

Block 1 — method: RNA Bind-n-Seq; form: RNA; medium: in vitro; tested at: not given; reference: input RNA pool; direction: higher = stronger binding
Target: RING finger protein unkempt homolog, zinc fingers 1-6, GST-SBP tag (UNK, Homo sapiens, UniProt Q9C0B0, residues 30-357)
UniProt Q9C0B0, sequence (30-357, looked up): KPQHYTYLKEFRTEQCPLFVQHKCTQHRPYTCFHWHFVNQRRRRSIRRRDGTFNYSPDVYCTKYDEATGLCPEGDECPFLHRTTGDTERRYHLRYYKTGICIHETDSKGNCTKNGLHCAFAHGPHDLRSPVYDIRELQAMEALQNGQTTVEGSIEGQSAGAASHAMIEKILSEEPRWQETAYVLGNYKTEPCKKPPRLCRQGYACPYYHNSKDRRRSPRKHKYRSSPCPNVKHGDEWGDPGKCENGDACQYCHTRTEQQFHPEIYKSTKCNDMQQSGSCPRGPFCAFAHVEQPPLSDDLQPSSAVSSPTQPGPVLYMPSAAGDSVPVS
Setting: RNA with constant flanks, human and mouse sites, ends assumed
Strand	bound/input enrichment [ratio]
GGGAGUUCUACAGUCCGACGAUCCGAACGGGCUCUCUGCGGAUCUCACACUUGCCCAGUGUCUCUUGGCUAGACCUCCAGUGACUGAUGAGGUCAUUCACUGCUGAGCAGGGACGCACUGCAAGUAAAACAACCCUCGUGGAACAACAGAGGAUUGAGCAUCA	0.0435
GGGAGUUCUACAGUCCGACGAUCAACAAGACAGACUUGCUCGAGGAGAAAGUGCAAGUUGUUAGCAUCAAAGACUAUUUCCUAGAAUUUGAAGGGGACCCCCACUGCUUAAGAGACGUCCAAAAGUUUCUGGUGGAAUGCUUCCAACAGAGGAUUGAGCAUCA	0.227
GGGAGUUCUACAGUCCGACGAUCAAUAAGCCCUGCCCAGUAUGUAGACAACCAAUUCAAAUGAUUGUGCUAACUUAUUUCCCCUAGUUGACCUGUCUAUAAGAGAAUUAUAUAUUUCUAACUAUAUAACCCUAGGAAUUUAGACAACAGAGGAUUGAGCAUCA	3.49
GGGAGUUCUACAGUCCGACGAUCGACCCCUUGAUGGCCCAAGAAUCCCAUAUGCUAGCUUCUAACACCAUGGAGACCCAUAUGUUAGCAUCCAAUACCAUGGACUCCCAGAUGCUAGCAUCCAACACUAUGGAUUCUCAGAUGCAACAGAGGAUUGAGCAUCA	0.279
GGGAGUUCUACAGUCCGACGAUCGCCCAGGGUCGCCAUGUAGAAGUUUUUGAGCUCCUCAAACCUCCAUCUGGAGGCCUUGGGUUUAGUGUUGUGGGACUAAGAAGUGAAAACAGAGGAGAGCUGGGAAUAUUUGUUCAAGAGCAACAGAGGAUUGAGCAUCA	0.513
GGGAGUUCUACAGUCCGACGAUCGAAAGGCCGGACCUCAGGGAAAAGGUCAUUAAAGGGGCAGAGAUCCUUGAAGUGUUGCACAGUCUUCCAGCAGUUCGGCAGUAUCUGUUUUCUCUCUAUGAAUGCCGUUAUUCAGUUUUUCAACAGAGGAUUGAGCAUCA	0.113
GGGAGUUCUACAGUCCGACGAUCAAGAAGAAGCAAGGUGAAGAUAACUCUACUGCACAGGACACAGAAGAAUUAGAAAAAGAGAUUAGAGAAGACCUUCCAGUGAAUACCUCUAAAACCCGUCCAAAACAGGAAAAAGCUUUUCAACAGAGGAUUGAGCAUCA	1.26
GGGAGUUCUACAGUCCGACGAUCUCUUUACAUUAUAACCACUCUGCUAAGUUUUUGAAGGAGUUGACGUUAUCCAUGGAUGAACUGGAAGAAAAUUUUCGAGGUAUGCUGAAAAGCGCAGCCACCAAAGUCACCACAGUACUACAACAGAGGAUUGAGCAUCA	0.196
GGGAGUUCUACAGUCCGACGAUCGAAAGACAUGGUAUGCUGUCUUUGUGAUUAAUUUUGUGUCUAACUUUAAGUACUAUAUUUGGACUUAUUUAUUUGAUUGGGCUUAACUGAGUUGUAUAAAUUUUAUUUUCAUAUUAAGUCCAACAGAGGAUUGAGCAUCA	0.572
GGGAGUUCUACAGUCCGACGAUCUACAGAGGAAGGGGUAGAGGGUAUUAUCAAGGAGGAGGAGGUAGAUAUCAUCGAGGUGGUUAUAGACCUGUCUGGAAUAGAAGGCACUCUAGGAGUCCUAGACGAGGUCGUUCACGUUCCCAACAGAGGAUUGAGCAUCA	0.386
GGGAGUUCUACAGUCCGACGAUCGAAAAGUUAGAACCUUGCUGUUAAUCUCAUCUGCUGUGUGUGAAGAUCAAUCAGUGGUCCCUUAGAUUCUUCCCUGCUAACCAAGGAAACAGGGUCGGCCUUGAUAAAUCAAGGGAGUUGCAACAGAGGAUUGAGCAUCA	0.365

Block 2 — method: RNA Bind-n-Seq; form: RNA; medium: in vitro; tested at: 200 nM; setting: whole 134-nt RNA, ends assumed; together with: 150 mM LiCl; reference: input library; direction: higher = stronger binding; each molecule: 7-deaza-guanosine replaces G
Target: Ras GTPase-activating protein-binding protein 1, full length (G3BP1, Homo sapiens, UniProt Q13283)
UniProt Q13283, sequence (whole entry, looked up): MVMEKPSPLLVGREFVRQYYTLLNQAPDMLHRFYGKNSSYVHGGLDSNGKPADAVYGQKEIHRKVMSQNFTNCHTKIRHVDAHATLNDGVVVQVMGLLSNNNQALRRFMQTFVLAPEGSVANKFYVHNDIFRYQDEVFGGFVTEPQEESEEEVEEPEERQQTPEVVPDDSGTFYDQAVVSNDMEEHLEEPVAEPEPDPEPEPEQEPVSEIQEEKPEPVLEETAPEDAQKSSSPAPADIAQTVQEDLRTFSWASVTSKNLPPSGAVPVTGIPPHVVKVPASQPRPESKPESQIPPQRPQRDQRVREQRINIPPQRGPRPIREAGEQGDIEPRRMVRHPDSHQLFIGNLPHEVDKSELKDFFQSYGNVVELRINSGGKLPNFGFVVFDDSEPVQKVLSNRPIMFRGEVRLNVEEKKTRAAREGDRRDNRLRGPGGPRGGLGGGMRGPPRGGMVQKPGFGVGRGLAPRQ
Strand	log2 enrichment
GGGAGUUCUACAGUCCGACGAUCAAGUCCUGUGCUACACAUCGUAUGUACCGAAUCGGGAAAGGGAAAAAAAGGGUGGGAAAGUAUUAUGUUACGCCGUUCGGAUCUGCACUUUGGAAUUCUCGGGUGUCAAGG	-0.193
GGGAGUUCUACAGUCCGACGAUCAAGUCCUGUGCUACACAUCGUAUGUACCGAAUCGGGUUUUUGGGUUUUUGGGUGGGAAAGUAUUAUGUUACGCCGUUCGGAUCUGCACUUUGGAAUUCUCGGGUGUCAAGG	-0.609
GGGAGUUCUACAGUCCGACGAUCUUGACAUGAAGACAAUGGAGACUGCAGAGAAACUGGCUAGAUUUGUUGCUCAGGUGGGACCAGAGAUCGAACAAUUCAGCAUAGAAAACAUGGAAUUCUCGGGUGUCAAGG	-1.43
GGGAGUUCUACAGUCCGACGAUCUUCAGGAUUGUGAGGGUGAAACUCCCAUUCACAAGGCAGCUCGCUCUGGGAGCCUAGAAUGCAUCAGUGCCCUUGUGGCGAAUGGGGCUCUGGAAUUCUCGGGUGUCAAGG	-0.62
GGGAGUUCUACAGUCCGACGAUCUGGCCCUGGUGGCAUGCGGGGAGGAAGAGGUGGCCUCAUGGAUCGUGGUGGUCCCGGUGGAAUGUUCAGAGGUGGCCAUGGUGGAGACAGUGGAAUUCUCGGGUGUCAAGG	-0.0282
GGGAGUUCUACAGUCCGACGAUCUAAUUGAAGAACCCAUUUUGCUCAUUUUAGGCAUCGUUAAAGAAUCUGGAGUGAAGCACAAGGGAUUGAUUGAAAUACCCAAUCUUUCUGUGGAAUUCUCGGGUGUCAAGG	-0.908
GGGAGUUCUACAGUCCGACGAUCCUCAAGUCCUGUGCUACACAUCGUAUGUACCGAAUCGGUUUGGAGGUUUUUGGAAAGUAUUAUGUUACGCCGUUCGGAUCUGCACUUCCAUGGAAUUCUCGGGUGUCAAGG	0.277
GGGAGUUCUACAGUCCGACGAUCUGGGAGGUGGAUUUUGUUUAUUUUUUUAGCUCAUUUCCAGGGGUGGGAAUUUUUUUAUAAUAUGUGUCAUGAAUAAAGUUGUUUUUGAAAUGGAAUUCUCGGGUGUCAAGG	-0.31

Block 3 — method: protein binding microarray; form: double-stranded DNA, one strand shown; medium: in vitro; tested at: not given; reference: not given; direction: higher = stronger binding
Target: Histone acetyltransferase KAT6A, winged helix 2, GST fusion (KAT6A, Homo sapiens, UniProt Q92794, residues 85-181)
Setting: 8-mer, flanks averaged, mean of 2 arrays, mostly near background
Target sequence (chain): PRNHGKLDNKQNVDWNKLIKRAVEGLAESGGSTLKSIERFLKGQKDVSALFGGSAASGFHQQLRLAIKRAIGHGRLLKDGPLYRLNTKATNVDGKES
Strand	E-score
CCACCTAG	-0.109
CACTTAAC	-0.151
CCAAGGCG	0.0217
TAGTACTA	-0.00789
AACAACGA	-0.0777
ACTGCACA	0.0987
CCTGGACA	-0.0424
CGAATCAA	0.124
CAGTAGCA	-0.0747
ATCACGTG	-0.125
AGGATGTA	-0.176
ACCGTGGA	-0.123
AGAGATGC	-0.0121
CGCTTTAC	-0.145
CATCAAGG	-0.145
ACGTAATA	-0.227
ACCTTAAA	-0.0506
CACACTAC	0.00555
GGACCGGA	0.096

Block 4 — method: protein-binding microarray; form: double-stranded DNA, one strand shown; medium: in vitro; tested at: 2540 nM top; setting: 60-bp whole probe; together with: salmon DNA 0.4 mg/ml; reference: random background probes; direction: higher = stronger binding; all sequences stand within: GCCTAGCAC … GTCTTGATTCGCTTGACGCTGCTG
Target: Interferon regulatory factor 3, full length, phosphomimetic (IRF3, Homo sapiens, UniProt Q14653, residues 1-427, S386D/S396D/S398D/S402D/T404D/S405D)
Construct (chain): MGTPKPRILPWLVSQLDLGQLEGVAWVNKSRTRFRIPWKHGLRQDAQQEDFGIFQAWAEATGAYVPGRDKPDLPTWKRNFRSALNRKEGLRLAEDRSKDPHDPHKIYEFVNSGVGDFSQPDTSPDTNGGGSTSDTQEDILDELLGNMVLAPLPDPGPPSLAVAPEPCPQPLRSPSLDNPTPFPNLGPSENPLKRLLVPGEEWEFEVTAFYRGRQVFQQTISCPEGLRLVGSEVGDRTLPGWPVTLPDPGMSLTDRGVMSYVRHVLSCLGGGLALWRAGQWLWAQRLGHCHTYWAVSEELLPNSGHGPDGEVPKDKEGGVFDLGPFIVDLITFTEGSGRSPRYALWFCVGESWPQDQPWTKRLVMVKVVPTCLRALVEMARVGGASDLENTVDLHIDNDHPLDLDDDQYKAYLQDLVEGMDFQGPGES
Strand	fitted relative affinity [z-score]
GACGGTATCCTAATCCTGACGTGCTAG	4.37
TTAGATTTCACTCTCGATTAGTGCTAG	3.09
TTAGGTATCGGACTTGGTTAGTGCTAG	2.41
GGCGATTTCAGTATCGAGACGTGCTAG	2.05
TGTACTTTCTATCTCTGTTTGTGCTAG	3.61
GACGGTATAGGACTGGGGACGTGCTAG	-0.427
CTAGATATCGGGTATCGATTAGTGCTA	0.46
TTAGGACTGGGTTTCGGTTTGTGCTAG	5.22
TCACATCTTGTTCCCAGACTGTGCTAG	1.23
TGGGTATTTTTTCTGAACCAGTGCTAG	1.14
ACAGCTCTGCGGTTCAGATAGTGCTAG	0.0751
TTAGAGCTGAGTATCGATTAGTGCTAG	-0.0185
CTGCTAGGGCACACAAGTCAGTGCTAG	-0.306
GACTATTTCAGTCTCGAGACGTGCTAG	1.68
TCAGGTATAAACTTGGGACTGTGCTAG	-0.402
TTAGGTTTCGACTATCGATTAGTGCTA	2.48
ACATGCTTCGAGATCTCCGAGTGCTAG	-0.234
CTCACCGCTGGAGTTCTGCGGTGCTAG	-0.596

Some of these lines once more (block 1):
Strand	bound/input enrichment [ratio]
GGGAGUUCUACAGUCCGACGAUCAACAAGACAGACUUGCUCGAGGAGAAAGUGCAAGUUGUUAGCAUCAAAGACUAUUUCCUAGAAUUUGAAGGGGACCCCCACUGCUUAAGAGACGUCCAAAAGUUUCUGGUGGAAUGCUUCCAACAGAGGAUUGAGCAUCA	0.227
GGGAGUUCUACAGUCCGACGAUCCGAACGGGCUCUCUGCGGAUCUCACACUUGCCCAGUGUCUCUUGGCUAGACCUCCAGUGACUGAUGAGGUCAUUCACUGCUGAGCAGGGACGCACUGCAAGUAAAACAACCCUCGUGGAACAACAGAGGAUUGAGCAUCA	0.0435
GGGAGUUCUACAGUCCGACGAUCGAAAGGCCGGACCUCAGGGAAAAGGUCAUUAAAGGGGCAGAGAUCCUUGAAGUGUUGCACAGUCUUCCAGCAGUUCGGCAGUAUCUGUUUUCUCUCUAUGAAUGCCGUUAUUCAGUUUUUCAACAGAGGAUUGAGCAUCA	0.113
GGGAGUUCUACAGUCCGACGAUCGCCCAGGGUCGCCAUGUAGAAGUUUUUGAGCUCCUCAAACCUCCAUCUGGAGGCCUUGGGUUUAGUGUUGUGGGACUAAGAAGUGAAAACAGAGGAGAGCUGGGAAUAUUUGUUCAAGAGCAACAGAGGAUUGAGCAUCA	0.513
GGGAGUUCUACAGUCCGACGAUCUCUUUACAUUAUAACCACUCUGCUAAGUUUUUGAAGGAGUUGACGUUAUCCAUGGAUGAACUGGAAGAAAAUUUUCGAGGUAUGCUGAAAAGCGCAGCCACCAAAGUCACCACAGUACUACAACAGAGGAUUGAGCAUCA	0.196
